# Measured values from different studies.
# Numbered parts are unrelated; each lists some results of a single study.

# Sample 1
# Target: Sal-like protein 4, full length isoform B (SALL4, Homo sapiens, UniProt Q9UJQ4-2, residues 1-616)
# Technique: universal PBM
# Molecule type: double-stranded DNA, one strand shown
# Matrix: in vitro
# Tested at: not given
# Notes: 8-mer, flanks averaged, mean of replicates
# Reading: higher = stronger binding
Strand,E-score
GACGGGTA,-0.116
TAGAACCA,0.0502
AAAGCACA,0.0417
TTTCCAAA,0.234
CCAGAGCC,-0.25
CGGGGACA,-0.166
GGCGGAAA,0.0178
AAACACAT,0.24
AACCTGCT,-0.188
ATCTGGAG,0.0202
CCCTGTGC,-0.279
ACTGTGCT,0.0186
ACACGTGG,-0.0638
ACGCTATA,0.151
CGCGACGA,-0.101

# Sample 2
# Target: Histone acetyltransferase KAT6A, winged helix 1, GST fusion (KAT6A, Homo sapiens, UniProt Q92794, residues 1-85)
# Technique: protein binding microarray
# Molecule type: double-stranded DNA, one strand shown
# Matrix: in vitro
# Tested at: not given
# Notes: 8-mer, flanks averaged, mean of 2 arrays, mostly near background
# Reference: not given
# Reading: higher = stronger binding
# Residues (chain): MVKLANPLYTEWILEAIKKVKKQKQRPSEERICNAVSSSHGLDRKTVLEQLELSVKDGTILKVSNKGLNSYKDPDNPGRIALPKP
Strand,E-score
ACAACTGT,-0.113
CGCCACAA,0.0922
TGTGTGAA,-0.171
CCCATCAC,-0.195
ACGGGTCC,0.351
AGACGCCC,0.158
GAAGCCAA,-0.0794
CAGAGCCG,0.235
ATAGACCC,0.0812
CAGTGAAG,-0.177
CCACCCGA,0.0931

# Sample 3
# Target: RNA binding protein fox-1 homolog 2, RRM domain, GST-SBP tag (RBFOX2, Homo sapiens, UniProt O43251-10, residues 100-194)
# Technique: RNA Bind-n-Seq
# Molecule type: RNA
# Matrix: in vitro
# Tested at: 365 nM
# Notes: natural RNA segment, single round, ends assumed
# Reference: no-protein control
# Reading: higher = stronger binding
# Shared flanks, not repeated: GGGAGUUCUACAGUCCGACGAUC … UGGAAUUCUCGGGUGCCAA
# Residues (chain): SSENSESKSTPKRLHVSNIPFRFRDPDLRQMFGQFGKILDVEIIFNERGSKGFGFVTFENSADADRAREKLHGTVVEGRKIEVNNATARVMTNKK
Strand,RBNS enrichment (R)
GGUAGAGGGGGAAAAAAAGUAGUGCCAUGGGGCCACGGGGCCCAGCUUAUUCCGUGUAGAUGCUUGUUUUUGUCCCUGCCUCCGAGGAACUUGUUCAUGAUUGUGCUCUG,4.31
GUUACGCGUGCCAUGAGAACCCACUCUACACCACGACGCUGGUGCCUCAGUGUUGGCCAAACUCUGGAGUCACUGACUGGUUUGACUUUCAUACGGUGAAUAUGCAUUUG,0.725
GUUUAUAUACAUUUGCCCUAACAUAGGAAGUAUUGUGUAGUUUCUCAUUGUCAUUUUAUCUGUAUCAAGUAUCUUUUUUUAAAUUGUUAAAUAAAGUCAGCUAGGACUGU,0.493
AGACAUGCAAAGCAUUCUUUUGCAUGUCUUUAUUUAAUUGUGGUUUUAUUAUCAAAAUUAUAUUUCUGAUAAAAUAUUUUAAUUUUGAGGUAAUCCUUACAAAAUGAAGG,0.732
CCCGCUGAGCUUCCCUUGGACACUAACUCUUCCCAGAUGAUGACAAUGAAAUUAGUGCCUGUUUUCUUGCAAAUUUAGCACUUGGAACAUUUAAAGAAAGGUCUAUGCUG,0.444
UUGAUCUUGGAGUGUGCAGUGGCCCUUCUACCCUGCACCUGACCUCAUGAUCCCCUCCACCUGCACUGGUGUGCAUUACUGAAGCAAGGGUCCUGUGGACAUCUUGCAUU,0.219
UUCAGUUCCCGUCUCAGCUGUACUUUUGUGGGCCUGUCAUCUUGAUGACCAGAAUGAAAGCUUGCUCUGCCUCCUGCCAGCCAGAAUUGGUGGCGGGACUUGGGGAUACA,1.28
AAAAGAACAUGUCUUUGGGUUCAUGUGUGGUGCUGCUGCCCGGGUGUAAACUAUCCCCACCCAGGGCCAGCCAUUAUCACCAGACCUCUUCUGGGCCUGGCUGUGAAGCC,0.266

# Mixed results
Molecule,target,assay,system,conditions,scale,endpoint,value
"PhoQ, residues 284 288 289 292 302 303 TLSLKA","PhoP, residues 12 14 15 18 19 NQFFI (Escherichia coli, UniProt P23836)","Sort-seq, refers to: YFP reporter",E. coli,"PhoQ-PhoP variant library, together with: 10 µM Mg2+","reference: high Mg2+ state, higher = stronger signaling",fold induction,1.85

# A few entries again (sample 2):
Strand,E-score
CGCCACAA,0.0922
TGTGTGAA,-0.171
CCCATCAC,-0.195
